Published values pooled from the literature.
Compare with care: the assays were run in different laboratories. ± marks the error that the study gave.
mutY full length assumed E37S: mutY full length assumed E37S (Escherichia coli, UniProt P17802)
Chain of UniProt Q96T21 (whole entry, unmodified, looked up): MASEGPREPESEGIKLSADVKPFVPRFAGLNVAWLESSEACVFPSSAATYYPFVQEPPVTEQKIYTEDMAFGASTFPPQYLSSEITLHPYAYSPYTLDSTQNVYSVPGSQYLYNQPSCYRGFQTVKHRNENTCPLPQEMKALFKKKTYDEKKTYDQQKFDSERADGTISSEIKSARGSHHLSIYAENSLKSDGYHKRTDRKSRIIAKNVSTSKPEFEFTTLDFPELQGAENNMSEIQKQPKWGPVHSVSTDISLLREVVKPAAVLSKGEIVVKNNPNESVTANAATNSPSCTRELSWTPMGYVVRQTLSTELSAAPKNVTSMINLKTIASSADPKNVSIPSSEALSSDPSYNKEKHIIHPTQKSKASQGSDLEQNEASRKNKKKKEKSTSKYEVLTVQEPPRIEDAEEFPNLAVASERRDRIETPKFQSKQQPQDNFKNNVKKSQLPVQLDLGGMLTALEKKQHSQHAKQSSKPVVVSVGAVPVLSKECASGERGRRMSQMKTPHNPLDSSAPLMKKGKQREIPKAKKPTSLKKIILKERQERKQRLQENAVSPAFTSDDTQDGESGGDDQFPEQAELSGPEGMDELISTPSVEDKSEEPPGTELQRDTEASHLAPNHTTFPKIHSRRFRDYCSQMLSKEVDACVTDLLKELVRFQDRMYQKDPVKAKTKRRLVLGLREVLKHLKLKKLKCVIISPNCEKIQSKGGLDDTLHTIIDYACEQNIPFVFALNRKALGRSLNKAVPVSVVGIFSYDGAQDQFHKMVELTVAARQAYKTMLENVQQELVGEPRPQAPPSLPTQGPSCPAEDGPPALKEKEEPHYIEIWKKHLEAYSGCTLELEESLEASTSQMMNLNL
Chain of UniProt Q01085 (whole entry, looked up): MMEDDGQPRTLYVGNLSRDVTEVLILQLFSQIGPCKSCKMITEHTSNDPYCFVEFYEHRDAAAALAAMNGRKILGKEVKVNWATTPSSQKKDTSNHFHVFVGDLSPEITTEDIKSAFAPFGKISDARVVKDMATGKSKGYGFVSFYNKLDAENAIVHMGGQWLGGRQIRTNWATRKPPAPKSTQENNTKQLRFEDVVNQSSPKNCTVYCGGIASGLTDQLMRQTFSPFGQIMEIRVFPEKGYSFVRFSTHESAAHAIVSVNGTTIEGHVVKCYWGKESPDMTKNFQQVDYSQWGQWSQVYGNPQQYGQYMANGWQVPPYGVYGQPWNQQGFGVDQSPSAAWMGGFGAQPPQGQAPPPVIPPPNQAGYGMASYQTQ
Chain of UniProt P21499 (whole entry, looked up): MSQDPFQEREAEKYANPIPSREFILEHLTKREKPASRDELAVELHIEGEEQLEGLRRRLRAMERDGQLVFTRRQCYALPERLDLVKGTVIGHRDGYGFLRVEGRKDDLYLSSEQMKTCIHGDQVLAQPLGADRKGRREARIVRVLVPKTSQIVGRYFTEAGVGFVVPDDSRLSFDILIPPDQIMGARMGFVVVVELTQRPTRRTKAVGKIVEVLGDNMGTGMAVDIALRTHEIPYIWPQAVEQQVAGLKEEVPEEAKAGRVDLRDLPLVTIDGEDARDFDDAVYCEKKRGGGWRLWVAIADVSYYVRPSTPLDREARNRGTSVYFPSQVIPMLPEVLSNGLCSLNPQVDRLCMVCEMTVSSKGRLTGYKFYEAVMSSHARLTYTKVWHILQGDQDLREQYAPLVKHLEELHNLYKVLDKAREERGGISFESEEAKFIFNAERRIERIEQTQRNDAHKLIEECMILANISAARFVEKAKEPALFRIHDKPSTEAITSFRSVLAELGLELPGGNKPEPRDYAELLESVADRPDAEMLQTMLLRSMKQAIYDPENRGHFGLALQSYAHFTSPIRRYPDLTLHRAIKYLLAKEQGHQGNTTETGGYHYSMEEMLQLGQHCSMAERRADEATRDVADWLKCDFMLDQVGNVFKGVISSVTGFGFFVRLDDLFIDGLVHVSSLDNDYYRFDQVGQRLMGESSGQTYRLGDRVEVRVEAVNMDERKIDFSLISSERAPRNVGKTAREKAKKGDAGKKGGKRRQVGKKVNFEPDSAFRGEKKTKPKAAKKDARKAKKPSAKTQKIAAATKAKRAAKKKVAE
Chain of UniProt P0DX76 (whole entry, looked up): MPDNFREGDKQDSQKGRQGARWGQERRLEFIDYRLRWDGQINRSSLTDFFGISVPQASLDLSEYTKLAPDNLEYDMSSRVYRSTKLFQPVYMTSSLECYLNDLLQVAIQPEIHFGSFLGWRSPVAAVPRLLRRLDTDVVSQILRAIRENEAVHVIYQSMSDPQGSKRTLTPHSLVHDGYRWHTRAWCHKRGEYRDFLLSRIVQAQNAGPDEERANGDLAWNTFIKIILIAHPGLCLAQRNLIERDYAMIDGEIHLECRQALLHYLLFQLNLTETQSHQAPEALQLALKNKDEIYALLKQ
Chain of UniProt P14780 (whole entry, looked up): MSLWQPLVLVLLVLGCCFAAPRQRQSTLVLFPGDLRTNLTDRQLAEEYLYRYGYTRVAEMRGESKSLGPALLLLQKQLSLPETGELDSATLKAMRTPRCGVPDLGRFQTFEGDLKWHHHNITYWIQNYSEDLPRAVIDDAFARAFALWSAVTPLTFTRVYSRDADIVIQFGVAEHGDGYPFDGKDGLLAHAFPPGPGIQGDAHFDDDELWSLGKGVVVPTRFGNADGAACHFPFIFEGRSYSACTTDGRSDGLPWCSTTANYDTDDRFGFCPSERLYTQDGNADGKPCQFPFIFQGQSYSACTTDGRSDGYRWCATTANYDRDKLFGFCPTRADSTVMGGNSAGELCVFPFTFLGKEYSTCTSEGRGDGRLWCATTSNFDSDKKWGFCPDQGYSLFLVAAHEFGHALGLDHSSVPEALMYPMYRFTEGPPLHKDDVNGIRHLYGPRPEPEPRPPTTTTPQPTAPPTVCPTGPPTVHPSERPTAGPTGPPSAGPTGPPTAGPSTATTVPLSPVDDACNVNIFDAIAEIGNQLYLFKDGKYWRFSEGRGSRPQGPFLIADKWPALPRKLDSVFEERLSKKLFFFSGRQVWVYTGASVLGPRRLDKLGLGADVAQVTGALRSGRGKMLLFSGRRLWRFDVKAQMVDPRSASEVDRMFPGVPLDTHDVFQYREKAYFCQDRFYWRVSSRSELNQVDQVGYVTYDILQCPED
Chain of UniProt Q16637 (whole entry, looked up): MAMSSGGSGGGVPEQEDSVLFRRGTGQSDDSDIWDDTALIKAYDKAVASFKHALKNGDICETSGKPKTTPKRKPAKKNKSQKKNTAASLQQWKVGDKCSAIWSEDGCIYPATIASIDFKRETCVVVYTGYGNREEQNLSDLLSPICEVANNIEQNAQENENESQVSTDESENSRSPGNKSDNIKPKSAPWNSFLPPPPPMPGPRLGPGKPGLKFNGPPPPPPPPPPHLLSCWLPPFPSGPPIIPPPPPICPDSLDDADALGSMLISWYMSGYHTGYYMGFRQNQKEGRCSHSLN
Chain of UniProt Q80W65 (whole entry, looked up): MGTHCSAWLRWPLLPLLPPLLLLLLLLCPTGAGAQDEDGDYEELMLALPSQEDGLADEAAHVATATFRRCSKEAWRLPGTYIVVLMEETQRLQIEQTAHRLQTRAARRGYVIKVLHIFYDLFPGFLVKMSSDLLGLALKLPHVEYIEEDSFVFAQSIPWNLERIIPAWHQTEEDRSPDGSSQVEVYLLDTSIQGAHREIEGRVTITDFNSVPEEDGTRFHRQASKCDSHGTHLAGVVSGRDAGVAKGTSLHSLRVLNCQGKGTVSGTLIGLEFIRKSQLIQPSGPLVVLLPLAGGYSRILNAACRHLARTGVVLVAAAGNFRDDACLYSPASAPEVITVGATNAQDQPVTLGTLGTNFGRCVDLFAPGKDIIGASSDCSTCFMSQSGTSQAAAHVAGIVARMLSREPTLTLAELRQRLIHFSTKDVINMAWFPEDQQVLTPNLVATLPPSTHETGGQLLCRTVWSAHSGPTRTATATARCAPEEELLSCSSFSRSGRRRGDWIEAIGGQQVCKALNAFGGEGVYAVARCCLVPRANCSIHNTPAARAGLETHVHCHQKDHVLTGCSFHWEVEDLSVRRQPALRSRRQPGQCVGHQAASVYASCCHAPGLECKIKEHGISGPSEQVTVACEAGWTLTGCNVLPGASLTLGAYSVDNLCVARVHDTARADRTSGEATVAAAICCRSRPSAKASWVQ

Oligonucleotide	target	method	molecule type	setting	with	Kd [nM]
CTGACCTCATCATCTCCCTACACACTGACACTTACAATGTGGTCAGTT (dsDNA)	protein holo K360Q/R364Q (Bacillus clausii, UniProt A0A268NVG2)	fluorescence titration	double-stranded DNA, one strand shown	Mg2+ 5 mM, apparent, Hill fit	PLP	54.8 ± 5.4
GCAGCCCAUGAUGGCUGAAUCCGAAAUCCUCGAUGGGUCCAGCUUGAUGUCUUUGCAGC (RNA hairpin (Homo sapiens); K-turn internal loop)	SECISBP2 515-854 (Homo sapiens, UniProt Q96T21)	EMSA			Mg2+ 1.5 mM	160
DNA 1 CGATCATGGAGGCTAGCGCTCCCGTTACAG / DNA 2 CTGTAACGGGAGCGATAGCCTCCATGATCG (dsDNA; 30 bp, central 9-deazaguanine:A)	mutY full length assumed E37S	EMSA	double-stranded DNA			0.6 ± 0.4
TTTTTTTTTTTTTTTTTTTT (ssDNA)	TIAL1 1-94 (Homo sapiens, UniProt Q01085)	SPR	single-stranded DNA			20900 ± 550
CTGACCTCATCATTTTCTTAAAAACTGACACTTACAATGTGGTCAGTT (dsDNA)	protein holo R370Q/R371Q (Bacillus clausii, UniProt A0A268NVG2)	fluorescence titration	double-stranded DNA, one strand shown	Mg2+ 5 mM, apparent, Hill fit	PLP	18.8 ± 0.8
DNA 1 CGATCATGGAGGCTAGCGCTCCCGTTACAG / DNA 2 CTGTAACGGGAGCGATAGCCTCCATGATCG (dsDNA; 30 bp, central 8-aminoguanine:A)	mutY full length assumed E37S	EMSA	double-stranded DNA			0.5 ± 0.2
UGGAGCCUUCCACCCCGGCACUCAUGACGGUCUGCCUGAAAACCAGCCCGCUGGUGGGGCAGUCCCGAGGACCUGGCGUGCAUCCCCGCCGGAGGAAGGUCCA (structured RNA)	SECISBP2 344-854 I535S/I536V/L537R/K538V/E539Y (Homo sapiens, UniProt Q96T21)	EMSA	folded RNA			600 ± 45
AACGUACUUUAAGGCCUAUUGAGGAAACUC (ssDNA; all dC Pp-dC; all dU Nap-dU)	Pcsk9 35-694 (Mus musculus, UniProt Q80W65)	filter binding				0.077
DNA 1 CGATCATGGAGGCTAGCGCTCCCGTTACAG / DNA 2 CTGTAACGGGAGCGATAGCCTCCATGATCG (dsDNA; 30 bp, central G:A mismatch)	mutY full length assumed E37S	EMSA	double-stranded DNA			0.24 ± 0.08
AAAA (ssRNA)	rnr full length assumed (Escherichia coli, UniProt P21499)	filter binding	RNA	EDTA present		1200 ± 90
CGGGGCGGGCCGGGGGCGGGGT (G-quadruplex DNA; parallel in K+)	APEX1 full length assumed D210A (Homo sapiens, UniProt P27695)	fluorescence anisotropy	folded DNA	K+ 140 mM		20
UGGAGCCUUCCACCCCGGCACUCAUGACGGUCUGCCGAAAUCCUCGAUGGCAGUCCCGAGGACCUGGCGUGCAUCCCCGCCGGAGGAAGGUCCA (structured RNA)	Sbp2 full length assumed (Drosophila melanogaster, UniProt Q9VSH1)	EMSA	folded RNA			230 ± 30
CTGACCAAAACAAAAAATCTCCAAAAAACTCGAAAAAAGTGGTCAGTT (dsDNA)	protein holo (Bacillus clausii, UniProt A0A268NVG2)	fluorescence titration	double-stranded DNA, one strand shown	Mg2+ 5 mM, apparent, Hill fit	PLP	25.8 ± 7
GCAGCCCAUGAUGGCUGAAUCCGAAAUCCUCGAUGGGUCCAGCUUGAUGUCUUUGCAGC (structured RNA)	Sbp2 full length assumed S95I/V96I/R97L/V98K/Y99E (Drosophila melanogaster, UniProt Q9VSH1)	EMSA	folded RNA			200 ± 10
TACGGCCGCACGAAAAGGTGCCCCATAACTCAATGCCGTA (ssDNA)	MMP9 20-707 (Homo sapiens, UniProt P14780)	SPR	single-stranded DNA			13.4
GGGGGGUUUUUUUUUUUUUUUUUGGGGG (ssRNA)	TIAL1 96-175 (Homo sapiens, UniProt Q01085)	SPR	RNA			5300 ± 200
DNA 1 CGATCATGGAGGCTAACGCTCCCGTTACAG / DNA 2 CTGTAACGGGAGCGATAGCCTCCATGATCG (dsDNA; 30 bp, central 8-oxoadenine:A)	mutY full length assumed E37S	EMSA	double-stranded DNA			0.04 ± 0.02
GGGCUCACCACGCACGUGCGCUGGACUAUUACGCGUGAGGCCUCACCACGGCAAGCU (structured RNA)	Survival motor neuron protein 1-294 (Homo sapiens, UniProt Q16637)	filter binding	folded RNA	apparent		20
RNA 1 GGAGGAUGUUAAUUGGCGUGUCUUGUCUGCAACGGUAUUC / RNA 2 GAAUACCGUUGCAGACAAGACACGCCAAUUAACAUCCUCC (dsRNA)	EIF2AK2 1-551 I102A (Homo sapiens, UniProt P19525)	sedimentation velocity AUC	double-stranded RNA	Kd1 first PKR		184
GCAGCCCAUGAUGGCUGAAUCCUGAAAACCAGCCCGCUGGUGGGGGUCCAGCUUGAUGUCUUUGCAGC (structured RNA)	SECISBP2 (Homo sapiens, UniProt Q96T21)	EMSA	folded RNA			470 ± 40
TTTTTTT (ssDNA)	capW 1-299 (Escherichia coli, UniProt P0DX76)	fluorescence polarization	single-stranded DNA		Mg2+ 5 mM	9540

Repeated from above:
Oligonucleotide	target	method	molecule type	setting	with	Kd [nM]
DNA 1 CGATCATGGAGGCTAACGCTCCCGTTACAG / DNA 2 CTGTAACGGGAGCGATAGCCTCCATGATCG (dsDNA; 30 bp, central 8-oxoadenine:A)	mutY full length assumed E37S	EMSA	double-stranded DNA			0.04 ± 0.02
GCAGCCCAUGAUGGCUGAAUCCUGAAAACCAGCCCGCUGGUGGGGGUCCAGCUUGAUGUCUUUGCAGC (structured RNA)	SECISBP2 (Homo sapiens, UniProt Q96T21)	EMSA	folded RNA			470 ± 40
UGGAGCCUUCCACCCCGGCACUCAUGACGGUCUGCCGAAAUCCUCGAUGGCAGUCCCGAGGACCUGGCGUGCAUCCCCGCCGGAGGAAGGUCCA (structured RNA)	Sbp2 full length assumed (Drosophila melanogaster, UniProt Q9VSH1)	EMSA	folded RNA			230 ± 30
TACGGCCGCACGAAAAGGTGCCCCATAACTCAATGCCGTA (ssDNA)	MMP9 20-707 (Homo sapiens, UniProt P14780)	SPR	single-stranded DNA			13.4
